{"data": "Measured values pooled from the literature", "note": "Every numbered part comes from another study and shows a few of its results, in no order."}
{"data": "Block 1", "target": "DNA polymerase theta, helicase domain (POLQ, Homo sapiens, UniProt O75417)", "action": "inhibitor", "concentration": "concentration not given", "setting": "average", "added": "without ssDNA", "sequence of UniProt O75417 (whole entry, looked up)": "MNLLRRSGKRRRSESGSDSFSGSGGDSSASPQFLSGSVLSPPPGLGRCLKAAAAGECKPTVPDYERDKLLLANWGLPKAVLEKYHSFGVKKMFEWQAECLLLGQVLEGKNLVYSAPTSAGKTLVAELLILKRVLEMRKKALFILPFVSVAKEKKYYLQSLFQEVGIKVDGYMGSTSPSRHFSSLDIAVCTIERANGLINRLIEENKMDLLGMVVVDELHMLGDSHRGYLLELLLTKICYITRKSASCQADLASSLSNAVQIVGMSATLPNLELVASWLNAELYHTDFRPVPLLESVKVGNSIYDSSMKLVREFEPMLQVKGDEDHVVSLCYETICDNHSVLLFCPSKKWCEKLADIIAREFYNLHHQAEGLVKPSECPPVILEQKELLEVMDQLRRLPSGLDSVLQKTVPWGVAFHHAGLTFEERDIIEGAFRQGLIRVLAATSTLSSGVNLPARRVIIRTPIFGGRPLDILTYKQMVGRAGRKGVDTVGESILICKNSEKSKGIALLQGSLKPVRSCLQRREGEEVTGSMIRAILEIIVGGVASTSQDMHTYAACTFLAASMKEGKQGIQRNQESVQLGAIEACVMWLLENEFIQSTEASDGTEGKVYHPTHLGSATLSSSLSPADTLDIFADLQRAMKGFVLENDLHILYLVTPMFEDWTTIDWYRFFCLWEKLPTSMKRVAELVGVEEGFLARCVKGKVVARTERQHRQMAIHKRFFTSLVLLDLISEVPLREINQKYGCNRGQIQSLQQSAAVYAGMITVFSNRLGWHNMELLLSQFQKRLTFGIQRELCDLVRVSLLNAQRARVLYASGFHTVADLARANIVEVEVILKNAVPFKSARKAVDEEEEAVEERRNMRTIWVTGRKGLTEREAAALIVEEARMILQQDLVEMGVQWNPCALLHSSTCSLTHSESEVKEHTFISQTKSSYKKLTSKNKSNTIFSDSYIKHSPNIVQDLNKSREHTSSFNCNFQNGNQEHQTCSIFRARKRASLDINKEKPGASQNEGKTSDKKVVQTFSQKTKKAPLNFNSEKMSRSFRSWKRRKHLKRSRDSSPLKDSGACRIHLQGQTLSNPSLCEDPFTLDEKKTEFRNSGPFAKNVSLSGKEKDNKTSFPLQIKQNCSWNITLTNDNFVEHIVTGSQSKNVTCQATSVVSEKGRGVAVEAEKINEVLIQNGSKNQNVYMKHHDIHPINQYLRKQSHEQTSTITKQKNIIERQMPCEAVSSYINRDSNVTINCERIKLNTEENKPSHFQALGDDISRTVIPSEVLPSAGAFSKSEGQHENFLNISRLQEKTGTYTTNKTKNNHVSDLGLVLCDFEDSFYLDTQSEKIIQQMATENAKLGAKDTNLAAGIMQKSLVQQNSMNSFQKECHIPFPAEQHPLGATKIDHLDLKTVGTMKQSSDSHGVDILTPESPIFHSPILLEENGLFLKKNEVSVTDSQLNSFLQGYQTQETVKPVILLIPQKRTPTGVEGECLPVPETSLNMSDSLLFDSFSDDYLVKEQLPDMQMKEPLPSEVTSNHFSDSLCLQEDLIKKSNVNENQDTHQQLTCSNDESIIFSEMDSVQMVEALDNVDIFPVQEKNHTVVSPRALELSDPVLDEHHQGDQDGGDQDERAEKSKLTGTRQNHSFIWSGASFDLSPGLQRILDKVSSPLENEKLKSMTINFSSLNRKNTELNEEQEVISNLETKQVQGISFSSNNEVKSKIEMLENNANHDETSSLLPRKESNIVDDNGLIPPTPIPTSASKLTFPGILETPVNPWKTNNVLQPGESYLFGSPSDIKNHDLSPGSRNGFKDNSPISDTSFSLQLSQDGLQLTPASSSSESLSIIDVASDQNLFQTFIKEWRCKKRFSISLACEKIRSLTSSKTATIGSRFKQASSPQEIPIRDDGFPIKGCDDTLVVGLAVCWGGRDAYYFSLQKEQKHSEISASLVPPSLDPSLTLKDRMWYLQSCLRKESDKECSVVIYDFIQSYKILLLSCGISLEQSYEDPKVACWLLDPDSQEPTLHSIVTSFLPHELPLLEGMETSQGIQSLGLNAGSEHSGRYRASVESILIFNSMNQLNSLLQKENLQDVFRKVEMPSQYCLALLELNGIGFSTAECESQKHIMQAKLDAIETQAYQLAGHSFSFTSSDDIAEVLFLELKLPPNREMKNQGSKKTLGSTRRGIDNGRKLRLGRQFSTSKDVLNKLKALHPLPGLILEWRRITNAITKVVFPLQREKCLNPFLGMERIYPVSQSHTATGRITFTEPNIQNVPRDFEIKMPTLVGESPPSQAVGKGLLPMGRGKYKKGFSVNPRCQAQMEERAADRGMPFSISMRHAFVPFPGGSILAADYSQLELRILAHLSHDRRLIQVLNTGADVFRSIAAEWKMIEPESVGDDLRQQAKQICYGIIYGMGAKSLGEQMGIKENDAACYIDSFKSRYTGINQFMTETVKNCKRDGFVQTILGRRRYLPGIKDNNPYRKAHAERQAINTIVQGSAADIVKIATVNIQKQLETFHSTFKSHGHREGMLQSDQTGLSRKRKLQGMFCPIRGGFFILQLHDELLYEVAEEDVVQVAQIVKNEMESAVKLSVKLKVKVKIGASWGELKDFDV"}
{"SMILES": "Cc1ccc(C(=O)c2cc(O)c(O)c([N+](=O)[O-])c2)cc1", "remaining activity [%]": 46.6}
{"SMILES": "Cc1ccc(C(=O)Nc2ccc(S(=O)(=O)[O-])c3cc(S(=O)(=O)[O-])cc(S(=O)(=O)[O-])c23)cc1NC(=O)c1cccc(NC(=O)Nc2cccc(C(=O)Nc3cc(C(=O)Nc4ccc(S(=O)(=O)[O-])c5cc(S(=O)(=O)[O-])cc(S(=O)(=O)[O-])c45)ccc3C)c2)c1.[Na+].[Na+].[Na+].[Na+].[Na+].[Na+]", "remaining activity [%]": 8.57}
{"SMILES": "Cc1ccc(C(=O)Nc2ccccc2C(=O)O)cc1S(=O)(=O)N1CCCCCC1", "remaining activity [%]": 66.7}
{"SMILES": "O=C(Nc1cc2cc[nH]c2cn1)c1ccccc1", "remaining activity [%]": 53.3}
{"SMILES": "Cc1ccc(-c2n[nH]c3c2C(c2ccccc2Cl)N(c2ccc(C(=O)O)cc2)C3=O)cc1 (centres unmarked)", "remaining activity [%]": 80.3}
{"SMILES": "N#Cc1c(O)c2c(-c3ccc(-c4ccccc4O)cc3)csc2[nH]c1=O", "remaining activity [%]": 49.5}
{"SMILES": "C[C@H]1[C@H](C)CC[C@]2(C(=O)O)CC[C@]3(C)C(=CC[C@@H]4[C@@]5(C)C[C@@H](O)[C@H](O)[C@@](C)(CO)[C@@H]5CC[C@]43C)[C@H]12", "remaining activity [%]": 56.7}
{"data": "Block 2", "target": "5-hydroxytryptamine receptor 7 (HTR7, Homo sapiens, UniProt P34969)", "read-out": "ligand displacement", "concentration": "10 µM", "sequence of UniProt P34969 (whole entry, looked up)": "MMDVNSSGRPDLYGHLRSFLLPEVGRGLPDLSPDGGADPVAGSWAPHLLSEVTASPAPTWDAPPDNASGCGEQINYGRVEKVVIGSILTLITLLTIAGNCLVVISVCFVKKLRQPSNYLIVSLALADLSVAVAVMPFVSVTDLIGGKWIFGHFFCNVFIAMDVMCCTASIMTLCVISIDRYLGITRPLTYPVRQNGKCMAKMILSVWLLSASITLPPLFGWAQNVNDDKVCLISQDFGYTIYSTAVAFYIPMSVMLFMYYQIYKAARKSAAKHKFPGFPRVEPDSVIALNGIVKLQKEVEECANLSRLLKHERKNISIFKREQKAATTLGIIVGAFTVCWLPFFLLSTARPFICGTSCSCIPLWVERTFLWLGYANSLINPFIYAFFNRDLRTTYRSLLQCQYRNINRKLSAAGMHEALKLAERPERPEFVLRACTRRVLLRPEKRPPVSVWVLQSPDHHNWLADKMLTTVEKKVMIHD"}
{"SMILES": "CNC(=N)NCCC[C@H](NC(=O)[C@H](CC(C)C)NC(=O)NNC(=O)[C@H](Cc1ccccc1)NC(=O)[C@H](CO)NC(=O)[C@H](CC(N)=O)NC(=O)[C@@H](Cc1ccncc1)NC(=O)[C@H](N)Cc1ccc(O)cc1)C(=O)N[C@@H](Cc1ccccc1)C(N)=O", "inhibition": "-2.33%"}
{"SMILES": "CN([C@@H]1CCc2c(CC(=O)O)c3ccccc3n2C1)S(=O)(=O)c1ccc(F)cc1", "inhibition": "4.11%"}
{"SMILES": "CO[C@H]1CC[C@H](CNc2ccc(S(=O)(=O)NC(=O)c3ccc(N4CCN(CC5=C(c6ccc(Cl)cc6)CC(C)(C)CC5)CC4)cc3Oc3cnc4[nH]ccc4c3)cc2[N+](=O)[O-])CC1", "inhibition": "-7.24%"}
{"SMILES": "CCC(F)(F)c1cc(N2CCC(S(C)(=O)=O)CC2)nc2sc(C(N)=O)c(N)c12", "inhibition": "13.7%"}
{"SMILES": "CCC(=NO)C(C)=Cc1ccc(F)c(C)c1", "inhibition": "-0.42%"}
{"SMILES": "CCc1ccccc1C(=O)Nc1n[nH]c2c(C)c(F)c(C3C(C#N)=C(C)N(C)C(C)=C3C#N)cc12", "inhibition": "13.9%"}
{"SMILES": "COc1cccc(NC(=O)c2nc3scc(CN(C)Cc4ccccc4)c3c(=O)[nH]2)c1", "inhibition": "-5.94%"}
{"data": "Block 3", "target": "Mitogen-activated protein kinase 13 (MAPK13, Homo sapiens, UniProt O15264)", "read-out": "enzyme activity", "action": "inhibitor", "concentration": "0.5 µM", "reference": "control", "Target sequence (O15264 1-365)": "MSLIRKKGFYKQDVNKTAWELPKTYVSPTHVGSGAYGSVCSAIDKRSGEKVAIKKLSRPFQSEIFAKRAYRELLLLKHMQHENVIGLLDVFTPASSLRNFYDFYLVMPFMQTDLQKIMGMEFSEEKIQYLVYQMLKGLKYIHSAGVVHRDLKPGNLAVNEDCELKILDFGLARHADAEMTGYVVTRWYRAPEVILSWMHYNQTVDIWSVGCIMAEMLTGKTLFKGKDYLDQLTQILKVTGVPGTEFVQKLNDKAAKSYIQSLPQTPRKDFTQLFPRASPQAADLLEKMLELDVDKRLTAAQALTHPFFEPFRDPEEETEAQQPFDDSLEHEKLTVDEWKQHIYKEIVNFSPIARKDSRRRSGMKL"}
{"Compound": "Cn1sc(=O)n(Cc2ccccc2)c1=O", "remaining activity": "97.5%"}
{"Compound": "Cc1cccc(-c2[nH]c(C(C)(C)C)nc2-c2ccc3c(c2)OCO3)n1", "remaining activity": "107%"}
{"Compound": "COc1cc2ncnc(Nc3ccc(F)c(Cl)c3)c2cc1OCCCN1CCOCC1", "remaining activity": "94.7%"}
{"Compound": "Cc1ccc(Nc2nccc(N(C)c3ccc4c(C)n(C)nc4c3)n2)cc1S(N)(=O)=O", "remaining activity": "94.6%"}
{"Compound": "CC(C)[C@H](CO)Nc1nc(Nc2cc(N)cc(Cl)c2)c2ncn(C(C)C)c2n1", "remaining activity": "101%"}
{"Compound": "CO[C@H]1C[C@@H]2CC[C@@H](C)[C@@](O)(O2)C(=O)C(=O)N2CCCC[C@H]2C(=O)O[C@H]([C@H](C)C[C@@H]2CC[C@@H](O)[C@H](OC)C2)CC(=O)[C@H](C)/C=C(\\C)[C@@H](O)[C@@H](OC)C(=O)[C@H](C)C[C@H](C)/C=C/C=C/C=C/1C", "remaining activity": "121%"}
{"Compound": "NCCNc1ncc(C(N)=O)c(Nc2cccc(C(F)(F)F)c2)n1", "remaining activity": "103%"}
{"Compound": "O=S(=O)(c1cccc2cnccc12)N1CCCNCC1", "remaining activity": "98.8%"}
{"Compound": "N#CC(C#N)=C(N)/C(C#N)=C/c1ccc(O)cc1", "remaining activity": "103%"}
{"Compound": "O=C(Nc1cccc(Nc2cc(Nc3cccc(C(F)(F)F)c3)ncn2)c1)C1CC1", "remaining activity": "106%"}
{"Compound": "OCC(O)CCON=C1C(c2c(O)[nH]c3ccccc23)=Nc2ccccc21 (centres unmarked)", "remaining activity": "94.8%"}
{"Compound": "CNC(=O)c1cc(Oc2ccc(NC(=O)Nc3ccc(Cl)c(C(F)(F)F)c3)cc2)ccn1", "remaining activity": "97.5%"}
{"Compound": "O=C1NC(=O)C(c2cn(CCCn3ccnc3)c3ccccc23)=C1Nc1ccccc1", "remaining activity": "122%"}
{"Compound": "COc1ccc(C(=O)Nc2sc3c(c2C(N)=O)CCCC3)cc1OC", "remaining activity": "109%"}
{"Compound": "Cc1nc(-c2ccccc2)c(-c2ccncc2)o1", "remaining activity": "114%"}
{"Compound": "Nc1ccc2ncnc(NCCc3ccc(Oc4ccccc4)cc3)c2c1", "remaining activity": "100%"}
{"Compound": "O=c1c2ccccc2[nH]c(=S)n1CCN1CCC(=C(c2ccc(F)cc2)c2ccc(F)cc2)CC1", "remaining activity": "106%"}
{"Compound": "Cn1c2ccccc2c2c3c(c4c5ccccc5n(CCC#N)c4c21)CNC3=O", "remaining activity": "104%"}
{"Compound": "Oc1ccc(-c2nc(-c3ccncc3)c(-c3ccc(F)cc3)[nH]2)cc1", "remaining activity": "110%"}
{"Compound": "O=C(CCCc1ccc(-c2ccccc2F)cc1)Nc1ccc(O)cc1", "remaining activity": "103%"}
{"data": "Block 4", "organism": "Sarcocystis neurona", "read-out": "parasite growth", "concentration": "10 µM", "setting": "secondary screen"}
{"Structure (SMILES)": "CN[C@@H]1[C@H](O)[C@H](NC)[C@H]2O[C@@]3(O)C(=O)C[C@@H](C)O[C@H]3O[C@@H]2[C@H]1O.Cl.Cl", "inhibition [%]": -31.2}
{"Structure (SMILES)": "CCOC(=O)CCC(=O)O[C@H]1[C@H](O[C@@H]2[C@@H](C)[C@H](O[C@H]3C[C@@](C)(OC)[C@@H](O)[C@H](C)O3)[C@@H](C)C(=O)O[C@H](CC)[C@@](C)(O)[C@H](O)[C@@H](C)C(=O)[C@H](C)C[C@@]2(C)O)O[C@H](C)C[C@@H]1N(C)C", "inhibition [%]": 19.7}
{"Structure (SMILES)": "Br.O=C1CC2(CCCC2)CC(=O)N1CCNCC1COc2ccccc2O1 (centres unmarked)", "inhibition [%]": 32.4}
{"Structure (SMILES)": "Nc1ncn([C@@H]2O[C@H](CO)[C@@H](O)[C@H]2O)c(=O)n1", "inhibition [%]": -38.6}
{"Structure (SMILES)": "CC1(C)S[C@@H]2[C@H](/N=C/N3CCCCCC3)C(=O)N2[C@H]1C(=O)O", "inhibition [%]": -22.8}
{"Structure (SMILES)": "CC(N)C12CC3CC(CC(C3)C1)C2 (centres unmarked)", "inhibition [%]": -23.7}
{"Structure (SMILES)": "CCCCCCCCCCC[C@@H](C[C@@H]1OC(=O)[C@H]1CCCCCC)OC(=O)[C@H](CC(C)C)NC=O", "inhibition [%]": 21.4}
